Experimental data gathered from unrelated publications.
A part holds a random share of what one study measured. Substitutions count along the parent as printed.

Block 1 — technique: protein binding microarray; molecule type: double-stranded DNA, one strand shown; medium: in vitro; tested at: not given; baseline: not given; reading: higher = stronger binding
Target: Histone acetyltransferase KAT6A, winged helix 1, GST fusion (KAT6A, Homo sapiens, UniProt Q92794, residues 1-85)
Setting: 8-mer, flanks averaged, mean of 2 arrays, mostly near background
Residues (chain): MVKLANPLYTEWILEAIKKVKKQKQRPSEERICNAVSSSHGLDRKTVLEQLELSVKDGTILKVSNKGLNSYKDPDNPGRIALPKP
Sequence	E-score
ATGCTTTG	-0.06
AACGGAGC	0.0989
ACAGACGG	0.057
AACGCCGG	0.297
AGGGGCAC	-0.0558
GTCGTTGA	-0.0947
CAAAAGCA	-0.0815
CGTTTCCA	-0.163
ACCGGGTA	0.191
CGTATATC	0.155

Block 2 — target: CCNB3, cyclin fold, Cln2 fusion (human); technique: yeast growth competition, sequencing; medium: yeast; setting: strong parent motif; baseline: not given; reading: higher = stronger binding
Parent: BRCA2 docking peptide (human); PSIKRNLLNEFDR; partner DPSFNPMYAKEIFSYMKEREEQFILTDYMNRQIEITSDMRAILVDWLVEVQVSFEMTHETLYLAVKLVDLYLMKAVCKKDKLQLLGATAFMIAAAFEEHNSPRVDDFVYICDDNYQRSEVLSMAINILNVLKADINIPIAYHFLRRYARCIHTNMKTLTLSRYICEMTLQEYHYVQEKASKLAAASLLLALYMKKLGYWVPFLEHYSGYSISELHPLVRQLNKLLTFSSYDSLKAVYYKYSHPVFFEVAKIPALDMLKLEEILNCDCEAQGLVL
Substitution	normalised enrichment score
PSIKRNLLNEFLR [D12L]	0.29
PSIKRNLLYEFDR [N9Y]	1.72
PSIKLNLLNEFDR [R5L]	0.228
PRIKRNLLNEFDR [S2R]	1.16
PSIKRNLLNEGDR [F11G]	-0.127
PSIKRWLLNEFDR [N6W]	0.383
PSIKRNLLAEFDR [N9A]	2.78
PSIKRNLNNEFDR [L8N]	0.64

Block 3 — target: DBP, bZIP domain (human); technique: DHFR protein complementation; medium: yeast; baseline: wild-type JUN-FOS pair; reading: higher = stronger binding
Setting: single substitutions, most at no-binding floor
Parent: JUN, bZIP domain (human); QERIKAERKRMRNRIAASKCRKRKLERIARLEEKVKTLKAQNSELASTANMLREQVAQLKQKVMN; partner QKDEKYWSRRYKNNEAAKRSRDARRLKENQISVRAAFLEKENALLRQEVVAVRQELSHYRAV
Substitution	binding fitness
M51L	-1.51 natural log
A29D	-1.36 natural log
M51S	-1.37 natural log
V56N	-1.61 natural log
T37P	-1.51 natural log

Mixed results
Substance	target	test	test system	setting	scale	measurement	value
PhoQ, residues 284 288 289 292 302 303 GTAMQF	PhoP, residues 12 14 15 18 19 LHSVQ (Escherichia coli, UniProt P23836)	Sort-seq, item: YFP reporter	E. coli	PhoQ-PhoP variant library, with: 10 µM Mg2+	baseline: high Mg2+ state, higher = stronger signaling	fold induction	1.06

Repeated from above (block 1):
Sequence	E-score
AACGGAGC	0.0989
ACAGACGG	0.057
AACGCCGG	0.297
AGGGGCAC	-0.0558
